Experimental data pooled from the literature.
A part holds a random share of what one study measured. Substitutions count along the parent as printed.

Sample 1
Target: Histone acetyltransferase KAT6A, winged helix 1, GST fusion (KAT6A, Homo sapiens, UniProt Q92794, residues 1-85)
Technique: protein binding microarray
Form: double-stranded DNA, one strand shown
Sample: in vitro
Concentration: not given
Setting: 8-mer, flanks averaged, mean of 2 arrays, mostly near background
Relative to: not given
Direction: higher = stronger binding
Residues (chain): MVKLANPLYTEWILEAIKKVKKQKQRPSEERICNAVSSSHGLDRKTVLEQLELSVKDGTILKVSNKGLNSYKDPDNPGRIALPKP
`AAGAGTTC` gave an E-score of -0.194.
For `ACGCCACT`, the E-score was -0.0517.
`AACAAAGC` gave an E-score of 0.0883.
For `AAAGGCCG`, the E-score was 0.353.
For `AATATCGA`, the E-score was -0.19.
The E-score of `CCGAATGA` is reported as 0.0255.
`AACGGTCG` has an E-score of 0.175.
`CCTATCAA` has an E-score of -0.131.
With `AGTCCGGC` the E-score was 0.288.
With `GAAACGTA` the E-score was -0.0741.
`CATCTAAC` gave an E-score of -0.0151.
With `ATTACGCC` the E-score was 0.067.
For `CTAATGCC`, the E-score was 0.13.
`CACTCGGC` gave an E-score of 0.255.

Sample 2
Target: ABI1, truncated, D143A, DHFR fusion (Arabidopsis thaliana)
Technique: DHFR PCA, deep sequencing
Sample: yeast
Setting: methotrexate growth selection, single substitutions
Added: (+)-ABA 0.032 µM
Relative to: wild-type fitted maximum
Direction: higher = stronger binding
Starting sequence: PYL1, truncated, DHFR fusion (Arabidopsis thaliana); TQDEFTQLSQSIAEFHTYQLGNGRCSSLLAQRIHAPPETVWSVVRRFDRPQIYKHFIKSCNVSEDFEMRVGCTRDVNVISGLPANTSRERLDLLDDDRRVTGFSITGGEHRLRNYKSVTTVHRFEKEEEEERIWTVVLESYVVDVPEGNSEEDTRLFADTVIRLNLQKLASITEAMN; partner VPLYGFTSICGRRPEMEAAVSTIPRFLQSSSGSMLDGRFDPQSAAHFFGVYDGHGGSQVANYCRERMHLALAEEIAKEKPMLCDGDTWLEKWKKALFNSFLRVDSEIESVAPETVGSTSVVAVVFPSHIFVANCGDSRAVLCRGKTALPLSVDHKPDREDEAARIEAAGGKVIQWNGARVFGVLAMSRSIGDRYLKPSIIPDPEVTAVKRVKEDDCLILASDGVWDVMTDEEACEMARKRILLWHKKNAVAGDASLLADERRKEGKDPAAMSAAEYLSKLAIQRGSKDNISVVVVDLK
For `R90P`, “relative binding score” read -5.51%.
For `A84C`, “relative binding score” read 38.5%.
For `I172S`, “relative binding score” read -1.36%.
`R69I` — result for “relative binding score”: 16.2%.
`D97H`: “relative binding score” 13%.
`V76G`: “relative binding score” -0.197%.
For `V76W`, “relative binding score” read -1.51%.
Under “relative binding score”, `K126A` is recorded as 63.6%.
For `N177L`, “relative binding score” read 18.5%.
`D153M` — result for “relative binding score”: 0.221%.

Sample 3
Target: CCND2, cyclin fold, Cln2 fusion (human)
Technique: yeast growth competition, sequencing
Sample: yeast
Setting: strong parent motif
Relative to: not given
Direction: higher = stronger binding
Starting sequence: E2F1 docking peptide (human); PPVKRRLDFETDH
`PPVKRRLDFEEDH [T11E]` — result for “normalised enrichment score”: 1.92.
`PPVKRRLRFETDH [D8R]`: “normalised enrichment score” 0.716.
Under “normalised enrichment score”, `PPVKRYLDFETDH [R6Y]` is recorded as 0.595.
`PPVKRRLEFETDH [D8E]`: “normalised enrichment score” 1.15.
`PPVKRRLTFETDH [D8T]` — result for “normalised enrichment score”: 2.09.
`PQVKRRLDFETDH [P2Q]`: “normalised enrichment score” 1.06.
`PPVKRRLDFYTDH [E10Y]`: “normalised enrichment score” 1.18.
For `PPVVRRLDFETDH [K4V]`, “normalised enrichment score” read 1.8.
For `PPVKTRLDFETDH [R5T]`, “normalised enrichment score” read 0.212.
Under “normalised enrichment score”, `PPVKRRLDGETDH [F9G]` is recorded as 0.161.
`PPVKCRLDFETDH [R5C]`: “normalised enrichment score” 0.326.
`PPVKRHLDFETDH [R6H]`: “normalised enrichment score” 0.556.
Under “normalised enrichment score”, `PYVKRRLDFETDH [P2Y]` is recorded as 0.901.
Under “normalised enrichment score”, `PPIKRRLDFETDH [V3I]` is recorded as 1.31.
Under “normalised enrichment score”, `PPVKRRLDFRTDH [E10R]` is recorded as 1.14.
Under “normalised enrichment score”, `PPVKRRLDAETDH [F9A]` is recorded as 0.17.
Under “normalised enrichment score”, `PPVKRRLDHETDH [F9H]` is recorded as -0.0881.
`PPVKRRLHFETDH [D8H]` — result for “normalised enrichment score”: 0.684.
`PFVKRRLDFETDH [P2F]` — result for “normalised enrichment score”: 0.496.
`PPVKRRLDFEFDH [T11F]` — result for “normalised enrichment score”: 2.12.
Under “normalised enrichment score”, `PPVKRILDFETDH [R6I]` is recorded as 0.324.
`PPVKRRLDFEMDH [T11M]` — result for “normalised enrichment score”: 1.82.
For `PPVKRRLDFECDH [T11C]`, “normalised enrichment score” read 2.1.
`PPVKRRLDFNTDH [E10N]` — result for “normalised enrichment score”: 2.17.
`PCVKRRLDFETDH [P2C]`: “normalised enrichment score” 1.81.

Single results of other studies
`PhoQ, residues 284 288 289 292 302 303 SLSLLA` gave a fold induction of 11.3 (PhoP, residues 12 14 15 18 19 TTLRV (Escherichia coli, UniProt P23836); Sort-seq, measured: YFP reporter; E. coli; PhoQ-PhoP variant library, added: 10 µM Mg2+; relative to: high Mg2+ state, higher = stronger signaling).

For quick reference, copied from above (sample 3):
Under “normalised enrichment score”, `PPVKRRLDGETDH [F9G]` is recorded as 0.161.
`PPVKCRLDFETDH [R5C]`: “normalised enrichment score” 0.326.
`PPVKRHLDFETDH [R6H]`: “normalised enrichment score” 0.556.
Under “normalised enrichment score”, `PYVKRRLDFETDH [P2Y]` is recorded as 0.901.
Under “normalised enrichment score”, `PPIKRRLDFETDH [V3I]` is recorded as 1.31.
Under “normalised enrichment score”, `PPVKRRLDFRTDH [E10R]` is recorded as 1.14.
Under “normalised enrichment score”, `PPVKRRLDAETDH [F9A]` is recorded as 0.17.
Under “normalised enrichment score”, `PPVKRRLDHETDH [F9H]` is recorded as -0.0881.
